Measurements gathered from unrelated publications.
Each numbered part is a random draw from the data of one study; scales do not carry over between parts. Several values in a cell are separate wells, animals, samples, runs or records.
Chain of UniProt P21802 (whole entry, looked up): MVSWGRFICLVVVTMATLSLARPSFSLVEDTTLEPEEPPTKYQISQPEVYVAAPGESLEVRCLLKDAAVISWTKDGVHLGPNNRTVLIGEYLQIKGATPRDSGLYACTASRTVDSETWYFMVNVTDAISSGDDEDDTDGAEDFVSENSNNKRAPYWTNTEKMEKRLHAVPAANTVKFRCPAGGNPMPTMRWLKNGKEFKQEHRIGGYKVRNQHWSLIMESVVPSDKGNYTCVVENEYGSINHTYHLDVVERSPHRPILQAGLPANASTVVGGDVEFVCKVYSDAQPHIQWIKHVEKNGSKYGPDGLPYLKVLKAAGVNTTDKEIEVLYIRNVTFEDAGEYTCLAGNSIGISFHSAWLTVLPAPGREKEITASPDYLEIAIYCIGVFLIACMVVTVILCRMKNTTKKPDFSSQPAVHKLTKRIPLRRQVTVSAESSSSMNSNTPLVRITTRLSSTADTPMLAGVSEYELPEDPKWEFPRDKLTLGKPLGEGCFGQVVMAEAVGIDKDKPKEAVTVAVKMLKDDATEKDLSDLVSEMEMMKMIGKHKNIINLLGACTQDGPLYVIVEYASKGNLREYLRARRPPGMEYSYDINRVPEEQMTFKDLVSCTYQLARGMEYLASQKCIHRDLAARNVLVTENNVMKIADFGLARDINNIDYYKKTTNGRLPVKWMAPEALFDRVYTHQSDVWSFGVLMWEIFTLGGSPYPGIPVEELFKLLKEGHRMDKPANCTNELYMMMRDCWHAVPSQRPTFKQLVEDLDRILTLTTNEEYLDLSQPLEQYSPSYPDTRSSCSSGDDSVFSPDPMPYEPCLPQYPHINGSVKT
Chain of UniProt Q14012 (whole entry, looked up): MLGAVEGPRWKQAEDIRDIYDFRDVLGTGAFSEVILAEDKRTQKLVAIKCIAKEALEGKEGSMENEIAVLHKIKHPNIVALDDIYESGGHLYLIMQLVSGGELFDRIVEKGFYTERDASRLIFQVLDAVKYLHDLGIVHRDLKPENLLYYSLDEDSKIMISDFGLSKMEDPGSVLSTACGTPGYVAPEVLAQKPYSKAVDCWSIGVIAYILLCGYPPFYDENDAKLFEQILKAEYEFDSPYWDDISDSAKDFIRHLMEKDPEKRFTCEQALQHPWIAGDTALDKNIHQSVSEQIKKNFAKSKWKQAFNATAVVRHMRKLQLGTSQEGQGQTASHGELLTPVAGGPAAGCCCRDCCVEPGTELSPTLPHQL
Chain of UniProt P51956 (whole entry, looked up): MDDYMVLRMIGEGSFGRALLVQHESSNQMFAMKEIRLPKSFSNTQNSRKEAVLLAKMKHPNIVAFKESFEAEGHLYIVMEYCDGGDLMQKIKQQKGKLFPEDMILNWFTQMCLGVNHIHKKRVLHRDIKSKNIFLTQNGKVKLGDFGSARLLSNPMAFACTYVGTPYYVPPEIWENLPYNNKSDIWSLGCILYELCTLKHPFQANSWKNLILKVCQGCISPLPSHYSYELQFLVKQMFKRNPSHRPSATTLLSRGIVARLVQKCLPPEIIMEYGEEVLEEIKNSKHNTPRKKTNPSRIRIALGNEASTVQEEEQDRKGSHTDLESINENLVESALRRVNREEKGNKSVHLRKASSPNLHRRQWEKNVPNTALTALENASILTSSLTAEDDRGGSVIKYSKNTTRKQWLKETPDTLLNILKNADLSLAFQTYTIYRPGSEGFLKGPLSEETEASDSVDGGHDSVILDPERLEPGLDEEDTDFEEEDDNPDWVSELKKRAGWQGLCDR

Series 1 — observed: enzyme activity
Compound: NC/C(=C\F)COc1cc(Cn2c(=S)[nH]c(=O)c3[nH]ccc32)ccc1Cl
Target: Myeloperoxidase (MPO, Homo sapiens, UniProt P05164)
Chain of UniProt P05164 (whole entry, looked up): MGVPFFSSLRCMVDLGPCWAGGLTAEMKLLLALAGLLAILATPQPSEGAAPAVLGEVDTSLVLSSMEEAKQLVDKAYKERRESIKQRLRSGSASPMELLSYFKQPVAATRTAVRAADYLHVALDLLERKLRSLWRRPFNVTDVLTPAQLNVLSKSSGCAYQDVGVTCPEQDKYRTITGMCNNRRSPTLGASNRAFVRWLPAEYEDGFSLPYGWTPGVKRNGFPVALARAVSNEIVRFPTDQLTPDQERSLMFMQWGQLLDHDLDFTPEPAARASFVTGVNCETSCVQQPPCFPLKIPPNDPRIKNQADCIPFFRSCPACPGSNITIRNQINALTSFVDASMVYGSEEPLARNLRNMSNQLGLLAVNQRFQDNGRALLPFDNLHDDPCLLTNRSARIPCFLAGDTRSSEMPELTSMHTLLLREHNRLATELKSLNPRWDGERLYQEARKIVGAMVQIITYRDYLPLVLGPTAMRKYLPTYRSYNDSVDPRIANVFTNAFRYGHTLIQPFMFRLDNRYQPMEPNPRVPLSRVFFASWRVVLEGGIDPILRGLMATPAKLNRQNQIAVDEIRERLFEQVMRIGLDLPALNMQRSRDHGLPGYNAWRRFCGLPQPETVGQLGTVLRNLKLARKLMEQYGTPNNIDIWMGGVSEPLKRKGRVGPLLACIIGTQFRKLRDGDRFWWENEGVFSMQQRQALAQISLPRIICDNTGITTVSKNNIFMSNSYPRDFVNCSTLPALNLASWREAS
| mode | technique | tested at | inhibition |
| --- | --- | --- | --- |
| – | – | 10 µM | 99.5% and 99.8% |
| – | – | 0.0015 µM | 18.4% and 0.678% |
| inhibitor | fluorescence | 1.111 µM | 98.6% |
| – | – | 0.0137 µM | 69.7% and 61.5% |
| inhibitor | fluorescence | 30 µM | 100% |

Series 2 — cell line: Gaucher fibroblasts L444P/L444P; technique: 4-MUG hydrolysis, cell lysate; tested at: 1 µM; time: 72 h; relative to: vehicle
| SMILES | GCase activity [%] |
| --- | --- |
| Ic1ccc(Nc2nc(NCCc3c[nH]c4ccccc34)nc(N3CCOCC3)n2)cc1 | 182 |
| CCOc1ccc2nc(Sc3nc(Nc4ccc(I)cc4)nc(N4CCOCC4)n3)sc2c1 | 113 |
| Ic1ccc(Nc2nc(NCCN3CCOCC3)nc(N3CC4CC3CO4)n2)cc1 (stereo not drawn) | 99 |
| Ic1ccc(Nc2nc(NCCN3CCOCC3)nc(N3CCSCC3)n2)cc1 | 101 |
| Ic1ccc(Nc2nc(NCCN3CCOCC3)nc(N3CCNCC3)n2)cc1 | 106 |

Series 3 — tested at: 1 µM
Structure (SMILES): CC[C@@]1(c2ccccc2)C2=C(CC(C)(C)CC2=O)Nc2n[nH]cc21
| target | observed | technique | relative to | remaining binding |
| --- | --- | --- | --- | --- |
| CAMK2B (Homo sapiens, UniProt Q13554) | kinase binding | KINOMEscan | DMSO control | 96% |
| PTK2B (Homo sapiens, UniProt Q14289) | binding | competition with immobilised ligand | – | 100% |
| ACVR2B (Homo sapiens, UniProt Q13705) | binding | competition with immobilised ligand | – | 100% |
| PIK3CA (Homo sapiens, UniProt P42336, C420R) | binding | competition with immobilised ligand | – | 76% |
| EPHA8 (Homo sapiens, UniProt P29322) | kinase binding | KINOMEscan | DMSO control | 100% |
| PDGFRB (Homo sapiens, UniProt P09619) | kinase binding | KINOMEscan | DMSO control | 100% |
| MAPK1 (Homo sapiens, UniProt P28482) | binding | competition with immobilised ligand | – | 100% |
| FGFR1 (Homo sapiens, UniProt P11362) | binding | competition with immobilised ligand | – | 93% |
| CSNK1A1L (Homo sapiens, UniProt Q8N752) | binding | competition with immobilised ligand | – | 100% |
| Tyrosine-protein kinase JAK2, JH1 (JAK2, Homo sapiens, UniProt O60674) | binding | competition with immobilised ligand | – | 76% |
| EPHB4 (Homo sapiens, UniProt P54760) | binding | competition with immobilised ligand | – | 100% |
| PIP5K1C (Homo sapiens, UniProt O60331) | binding | competition with immobilised ligand | – | 65% |
| Ribosomal protein S6 kinase alpha-1, C-terminal kinase domain (RPS6KA1, Homo sapiens, UniProt Q15418) | kinase binding | KINOMEscan | DMSO control | 85% |
| EGFR (Homo sapiens, UniProt P00533, L858R/T790M) | binding | competition with immobilised ligand | – | 100% |
| SIK1 (Homo sapiens, UniProt P57059) | – | KINOMEscan | – | 100% |

Series 4 — Compound: CNCCCN1c2ccccc2CCc2ccc(Cl)cc21; observed: enzyme activity; mode: inhibitor; technique: Ub-TR-FRET; medium: HECT domain; direction: higher = more chain formation
Target: E3 ubiquitin-protein ligase NEDD4, HECT domain (Homo sapiens, UniProt P46934)
Construct (P46934 938-1319, limits assumed): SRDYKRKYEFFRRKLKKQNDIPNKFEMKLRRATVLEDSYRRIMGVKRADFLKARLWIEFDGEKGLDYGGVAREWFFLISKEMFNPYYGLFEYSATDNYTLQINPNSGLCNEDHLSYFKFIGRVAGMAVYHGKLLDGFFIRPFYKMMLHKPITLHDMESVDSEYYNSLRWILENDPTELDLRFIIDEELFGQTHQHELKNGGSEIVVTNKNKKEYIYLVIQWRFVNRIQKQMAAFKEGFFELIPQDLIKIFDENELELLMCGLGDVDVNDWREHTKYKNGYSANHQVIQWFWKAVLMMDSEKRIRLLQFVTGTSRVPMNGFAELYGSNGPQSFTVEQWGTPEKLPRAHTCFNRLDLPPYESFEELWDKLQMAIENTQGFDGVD
| tested at | ubiquitin chain formation AUC |
| --- | --- |
| 100 µM | 27700 a.u. and 25700 a.u. and 112000 a.u. and 27100 a.u. |
| 3.704 µM | 139000 a.u. and 140000 a.u. and 142000 a.u. |
| 0.1372 µM | 145000 a.u. and 146000 a.u. |
| 0.4115 µM | 147000 a.u. and 146000 a.u. and 144000 a.u. |
| 11.11 µM | 133000 a.u. and 131000 a.u. |

Series 5 — cell line: U-87 MG; tested at: concentration not given; relative to: DMSO
Compound: CCN1/C(=C/C=C2\CCCC(/C=C/C3=[N+](CC)c4ccccc4C3(C)C)=C2NCCCCCCCCN2CCC(Nc3nc4ccccc4n3Cc3ccc(F)cc3)CC2)C(C)(C)c2ccccc21
| item | log2 fold change |
| --- | --- |
| EDNRA mRNA | 1 |
| TSC22D1 mRNA | 0.858 |
| MED12L mRNA | 1.27 |
| JPT1 mRNA | -1.13 |
| ABAT mRNA | 2.13 |
| ARID5B mRNA | -1.12 |
| KCNT2 mRNA | 1.18 |
| FANCM mRNA | -1.31 |
| GPR19 mRNA | -1.52 |
| MYL9 mRNA | -1.13 |
| CLK1 mRNA | 1.79 |
| GALNT18 mRNA | -0.913 |
| TUBA1B mRNA | -2.09 |
| ANKRD35 mRNA | -1.62 |
| KIAA1549L mRNA | -1.41 |
| PDGFRB mRNA | -2.28 |

Series 6 — technique: NanoBRET; tested at: 1 µM
Compound: COc1cc(-c2nc3ccc(C(=O)NCCCN(C)C)cc3n2C2CCC2)cc(OC)c1OC
| target | target occupancy |
| --- | --- |
| Cyclin-dependent kinase 17, with cyclin Y (CDK17, Homo sapiens, UniProt Q00537) | -3.83% |
| CHEK2 (Homo sapiens, UniProt O96017) | -2.95% |
| CAMK1 (Homo sapiens, UniProt Q14012) | -1.9% |
| CDKL3 (Homo sapiens, UniProt Q8IVW4) | -11.1% |
| NEK3 (Homo sapiens, UniProt P51956) | -1.34% |
| CSNK1G2 (Homo sapiens, UniProt P78368) | 3.92% |
| BRSK2 (Homo sapiens, UniProt Q8IWQ3) | -0.23% |
| FGFR2 (Homo sapiens, UniProt P21802) | -0.52% |
| LIM domain kinase 2 (LIMK2, Homo sapiens, UniProt P53671) | -0.38% |
| STK16 (Homo sapiens, UniProt O75716) | 0.66% |
| MARK2 (Homo sapiens, UniProt Q7KZI7) | 0.52% |
| RIPK1 (Homo sapiens, UniProt Q13546) | -3.47% |
| MAPK11 (Homo sapiens, UniProt Q15759) | -0.47% |
| HIPK2 (Homo sapiens, UniProt Q9H2X6) | 1.56% |
| PRKACA (Homo sapiens, UniProt P17612) | -0.64% |

Series 7
Compound: Cc1ccc(O)c(C)c1-c1cnc2[nH]c(-c3cnc(N4CCC5(CC4)CC(N4CCN(c6ccc(N[C@H]7CCC(=O)NC7=O)cc6F)CC4)CO5)nc3)cc2c1C#N (single isomer, unassigned)
PKMYT1: Membrane-associated tyrosine- and threonine-specific cdc2-inhibitory kinase (PKMYT1, Homo sapiens, UniProt Q99640)
Chain of UniProt Q99640 (whole entry, looked up): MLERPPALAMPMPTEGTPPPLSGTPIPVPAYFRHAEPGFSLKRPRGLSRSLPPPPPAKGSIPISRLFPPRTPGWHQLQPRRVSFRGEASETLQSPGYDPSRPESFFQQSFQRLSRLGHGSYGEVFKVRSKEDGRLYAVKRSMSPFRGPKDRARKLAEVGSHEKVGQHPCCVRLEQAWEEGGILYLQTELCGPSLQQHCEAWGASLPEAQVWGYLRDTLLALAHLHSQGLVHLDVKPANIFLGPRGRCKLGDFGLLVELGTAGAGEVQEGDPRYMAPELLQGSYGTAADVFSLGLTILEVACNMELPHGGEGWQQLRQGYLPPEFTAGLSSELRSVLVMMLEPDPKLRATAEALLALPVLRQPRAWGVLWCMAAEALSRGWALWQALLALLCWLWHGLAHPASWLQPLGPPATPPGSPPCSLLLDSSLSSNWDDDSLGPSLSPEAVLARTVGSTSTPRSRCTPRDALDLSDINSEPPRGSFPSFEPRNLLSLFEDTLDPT
CRBN: Protein cereblon (CRBN, Homo sapiens, UniProt Q96SW2)
Chain of UniProt Q96SW2 (whole entry, looked up): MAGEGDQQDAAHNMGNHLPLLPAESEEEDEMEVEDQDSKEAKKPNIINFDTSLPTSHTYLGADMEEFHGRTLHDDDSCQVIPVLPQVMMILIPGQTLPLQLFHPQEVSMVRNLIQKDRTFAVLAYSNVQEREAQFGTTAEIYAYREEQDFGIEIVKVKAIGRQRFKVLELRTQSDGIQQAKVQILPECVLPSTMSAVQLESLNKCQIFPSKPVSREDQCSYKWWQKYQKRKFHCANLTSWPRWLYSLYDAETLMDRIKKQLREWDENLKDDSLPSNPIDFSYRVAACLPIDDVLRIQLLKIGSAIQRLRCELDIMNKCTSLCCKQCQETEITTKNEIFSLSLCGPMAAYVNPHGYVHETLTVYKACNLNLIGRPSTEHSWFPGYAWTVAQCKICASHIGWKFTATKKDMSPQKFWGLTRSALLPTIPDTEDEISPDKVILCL
| target or system | assay | setting | inhibition |
| --- | --- | --- | --- |
| HuCCT-1 | cell proliferation | 1.52 nM | 2.26% and 1.13% and 4.18% |
| RAF1 | KINOMEscan | 1000 nM | 72% |
| PKMYT1 | enzyme activity, inhibitor | 1.524 nM | 26.3% |
| PKMYT1 | – | 0.03704 µM | 88.7% |
| HuCCT-1 | cell proliferation | 41.15 nM | 8.64% and 10.6% and 4.55% |
| PKMYT1 | – | 0.3333 µM | 98.3% |
| PKMYT1 | binding, HTRF | 3333.33 nM | 101% and 99.5% |
| PKMYT1 | enzyme activity, inhibitor | 10 µM | 100% |
| CRBN | binding | 370.37 nM | 15.8% and 8.13% |
| CRBN | binding | 3333.33 nM | 49.8% and 41.1% |
| HCC1569 | automated capillary immunoblot, item: CDK1 phospho-Thr14 | 100 nM, 2 h | 36% |
| U-251 MG | cell growth | 3333.33 nM | 86.1% |
| HCC1569 | automated capillary immunoblot, item: CDK1 phospho-Thr14 | 1 nM, 4 h | 6.62% |
| HCC1569 | automated capillary immunoblot, item: CDK1 phospho-Thr14 | 100 nM, 4 h | > 50% |

Series 8 — observed: binding; mode: competitor; technique: NanoBRET; cells: HEK293
Structure (SMILES): C=CC(=O)N1CCN(c2nc(OC[C@@H]3CCCN3C)nc3c2CCN(c2cccc4cccc(C)c24)C3)C[C@@H]1CC#N
KRAS G12D: GTPase KRas (KRAS, Homo sapiens, UniProt P01116, G12D)
HRAS: GTPase HRas (HRAS, Homo sapiens, UniProt P01112)
KRAS Q61H: GTPase KRas (KRAS, Homo sapiens, UniProt P01116, Q61H)
| target | tested at | normalized BRET |
| --- | --- | --- |
| KRAS G12D | 2.22 µM | 74.6% and 49% |
| HRAS | 3.05 nM | 99.9% and 94.9% |
| KRAS Q61H | 9.14 nM | 95.7% and 97.4% and 95.2% |
| HRAS | 27.4 nM | 101% and 85.5% |
| KRAS Q61H | 247 nM | 71.5% and 80.1% and 65.4% |
| KRAS G12D | 611 pM | 104% |
| GTPase KRas (KRAS, Homo sapiens, UniProt P01116, G13D) | 20 µM | 17% and 11.1% and 8.78% |
| GTPase KRas (KRAS, Homo sapiens, UniProt P01116, Q61R) | 3.05 nM | 99.9% and 99.7% and 91.1% |

Series 9 — observed: thermal unfolding; technique: differential scanning fluorimetry; tested at: 5.5 µM; direction: higher = more unfolded
SMILES: C[C@@H]1CN(c2ccc(-c3cc(C(=O)NCCOCCOCCOCCOCCOCCOCCNC(=O)/C=C/c4[nH]cc(C(=O)N[C@@H](CC(N)=O)c5ccc(F)c(Cl)c5)c4-c4ccc(Cl)cc4F)ccc3F)cc2NC(=O)c2ccc(F)cc2C(F)(F)F)C[C@H](C)N1C
WDR5: WD repeat-containing protein 5 (WDR5, Homo sapiens, UniProt P61964)
DCAF1: DDB1- and CUL4-associated factor 1 (DCAF1, Homo sapiens, UniProt Q9Y4B6)
Chain of UniProt Q9Y4B6 (whole entry, looked up): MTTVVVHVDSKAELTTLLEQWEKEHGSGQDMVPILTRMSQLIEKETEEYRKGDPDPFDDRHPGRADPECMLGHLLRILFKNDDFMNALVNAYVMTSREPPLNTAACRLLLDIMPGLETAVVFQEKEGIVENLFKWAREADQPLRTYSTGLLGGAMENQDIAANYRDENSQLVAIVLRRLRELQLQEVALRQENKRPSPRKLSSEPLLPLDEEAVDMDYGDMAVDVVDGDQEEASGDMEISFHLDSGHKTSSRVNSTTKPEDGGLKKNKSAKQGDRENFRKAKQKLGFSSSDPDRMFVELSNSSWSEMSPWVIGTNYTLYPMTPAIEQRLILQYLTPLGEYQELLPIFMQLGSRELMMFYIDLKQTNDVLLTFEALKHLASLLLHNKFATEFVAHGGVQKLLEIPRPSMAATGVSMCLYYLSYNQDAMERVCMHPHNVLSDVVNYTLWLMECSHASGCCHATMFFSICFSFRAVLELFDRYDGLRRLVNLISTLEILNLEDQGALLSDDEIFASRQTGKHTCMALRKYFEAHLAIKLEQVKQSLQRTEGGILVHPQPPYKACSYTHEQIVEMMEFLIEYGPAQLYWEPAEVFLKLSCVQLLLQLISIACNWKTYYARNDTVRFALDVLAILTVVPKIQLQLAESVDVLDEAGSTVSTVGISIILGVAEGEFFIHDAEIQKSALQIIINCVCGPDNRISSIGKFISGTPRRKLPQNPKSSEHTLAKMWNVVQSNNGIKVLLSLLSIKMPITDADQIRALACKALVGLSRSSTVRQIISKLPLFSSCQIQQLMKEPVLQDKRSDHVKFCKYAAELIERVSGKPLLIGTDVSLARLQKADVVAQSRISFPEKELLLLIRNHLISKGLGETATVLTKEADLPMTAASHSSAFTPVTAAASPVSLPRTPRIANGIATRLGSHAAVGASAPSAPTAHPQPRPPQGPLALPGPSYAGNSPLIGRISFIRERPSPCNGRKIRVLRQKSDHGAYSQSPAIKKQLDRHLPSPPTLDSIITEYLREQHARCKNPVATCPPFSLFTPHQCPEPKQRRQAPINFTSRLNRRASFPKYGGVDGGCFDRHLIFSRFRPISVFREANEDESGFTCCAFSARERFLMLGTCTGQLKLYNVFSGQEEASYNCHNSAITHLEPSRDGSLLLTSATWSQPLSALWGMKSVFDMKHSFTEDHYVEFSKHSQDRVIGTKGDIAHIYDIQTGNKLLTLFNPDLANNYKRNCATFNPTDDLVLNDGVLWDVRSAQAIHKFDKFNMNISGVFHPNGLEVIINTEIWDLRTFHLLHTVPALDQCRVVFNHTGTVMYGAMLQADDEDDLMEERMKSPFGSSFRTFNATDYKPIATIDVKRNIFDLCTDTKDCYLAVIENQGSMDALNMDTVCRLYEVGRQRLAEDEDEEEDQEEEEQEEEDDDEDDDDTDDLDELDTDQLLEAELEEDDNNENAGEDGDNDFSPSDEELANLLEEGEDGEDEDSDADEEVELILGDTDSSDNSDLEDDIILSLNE
| target | temperature | SYPRO Orange fluorescence |
| --- | --- | --- |
| WDR5 | 88.01 °C | 57800 a.u. |
| DCAF1 | 70.01 °C | 48300 a.u. |
| WDR5 | 27.6 °C | 13400 a.u. |
| DCAF1 | 67.21 °C | 51200 a.u. |
| DCAF1 | 25.8 °C | 7450 a.u. |
| DCAF1 | 83.61 °C | 37100 a.u. |
| DCAF1 | 86.01 °C | 34900 a.u. |
| WDR5 | 64.21 °C | 15700 a.u. |
| WDR5 | 34.2 °C | 13800 a.u. |
| WDR5 | 25.4 °C | 13200 a.u. |
| WDR5 | 39 °C | 13900 a.u. |

Series 10 — route: intravenous
Structure (SMILES): Cc1ncsc1-c1ccc(C(CO)NC(=O)C2CC(O)CN2C(=O)C(C(C)C)n2cc(-c3ccc(COc4c(-c5c(C)c(F)cc6[nH]ncc56)c(C5CC5)cc5c(N6CC7CC6CN7)nc(OC6CCOCC6)nc45)cc3)nn2)cc1 (stereo not drawn)
| species | medium | dose | time | concentration |
| --- | --- | --- | --- | --- |
| male Balb/c nu/nu mouse (PK-59 xenograft) | plasma | 30 mg/kg | 24 h | 41.7 ng/mL |
| mouse (PK-59 xenograft) | plasma | 10 mg/kg | 144 h | 0 ng/mL |
| male Balb/c nu/nu mouse (PK-59 xenograft) | tumor | 10 mg/kg | 6 h | 207 ng/g |
| mouse, PK-59 xenograft | tumor | 30 mg/kg | 144 h | 1120 ng/g and 771 ng/g and 451 ng/g |
| male Balb/c nu/nu mouse, PK-59 xenograft | tumor | 30 mg/kg | 2 h | 1690 ng/g and 1360 ng/g |
| mouse (PK-59 xenograft) | plasma | 30 mg/kg | 72 h | 9.15 ng/mL and 6.2 ng/mL and 4.31 ng/mL |
| male Balb/c nu/nu mouse (PK-59 xenograft) | pancreas | 10 mg/kg | 24 h | 73.3 ng/g |
| male Balb/c nu/nu mouse, PK-59 xenograft | pancreas | 30 mg/kg | 6 h | 990 ng/g and 840 ng/g |
